Published values gathered from unrelated publications.
Protocols differ between the studies behind these lines. Numbers after ± are the reported error. In brackets after ≈: the same amount, converted by molar mass.

Structure (SMILES) | target or system | assay | system | setting | how to read | endpoint | value
Cc1ncsc1-c1ccc(C(C)NC(=O)C2CC(O)CN2C(=O)C(NC(=O)CCCCCCCCCCN2CCCC(Nc3ncc(Cl)c(Nc4ccccc4S(=O)(=O)C(C)C)n3)C2)C(C)(C)C)cc1 (stereo not drawn) | 22Rv1 | RNA-seq, measured: TWNK mRNA |  | concentration not given | relative to: DMSO | log2 fold change | -1.03
COC1CN([C@H]2CC[C@H]([C@@]3(C)Oc4c(Cl)cc(C(=O)NCc5c(SC)cc(C)[nH]c5=O)c(C)c4O3)CC2)C1 |  | RNA-seq, measured: CNRIP1 mouse homolog | mouse, HT-1376 xenograft, whole blood | dose not given | relative to: vehicle | log2 fold change | 1.47
CNS(=O)(=O)Nc1nccc(Cc2c(C)c3ccc(Oc4ncccc4F)cc3oc2=O)c1F | NCI-H2106 | cell viability, CellTiter-Glo |  | 7 days |  | IC50 | > 1000 nM
CN1CCCNC(=O)c2cccc(c2)C(=O)NCCCN(C)CCCNc2cccc3c2C(=O)c2cccc(c2C3=O)NCCC1 | SAS | RNA-Seq, measured: CHCHD7 mRNA |  | 1 µM, 6 h | relative to: untreated cells | log2 fold change | -0.606
O=C(N/N=C/c1cc[n+](CC2CC2)c2ccccc12)C(=O)N/N=C/c1cc[n+](CC2CC2)c2ccccc12 | myc22 MYC G4-DNA parallel | FRET melting |  | 1 µM, K1 buffer, DNA 0.2 µM |  | ΔTm | 3.2 ± 0.5 °C
Nc1ncc(-c2cc(-c3cnn(CC(F)(F)F)c3)ncc2F)nc1C(=O)NC1CNCC(F)C1 (stereo not drawn) | MYLK2 | KINOMEscan |  | 1 µM | relative to: DMSO control | remaining binding | 91%
CC[n+]1cccc2cc(/C=N/NC(=O)c3cccc(C(=O)N/N=C/c4ccc5c(ccc[n+]5CC)c4)n3)ccc21 | myc22 MYC G4-DNA parallel | FRET melting |  | 1 µM, K1 buffer, DNA 0.2 µM, together with: ds26 10 µM |  | ΔTm | 17.5 ± 0.5 °C
COc1cc(O)ccc1CCC(c1ccc(O)cc1)c1cc2c(c(C)c1O)OC(c1ccc(O)cc1)CC2 (mixture of isomers) |  |  | human blood | 1 µM, together with: A23187 |  | DHA level | 127000 ± 31700 pg/mL
O=C(N/N=C/c1ccc2c(ccc[n+]2Cc2ccccc2)c1)c1cccc(C(=O)N/N=C/c2ccc3c(ccc[n+]3Cc3ccccc3)c2)n1 | myc22 MYC G4-DNA parallel | FRET melting |  | 1 µM, K1 buffer, DNA 0.2 µM |  | ΔTm | 17.1 ± 0.5 °C
C=C(NC(=O)c1csc(-c2nc3c(cc2O)-c2nc(cs2)C(=O)NC(C(C)O)C(=O)NC(=C(C)OC)c2nc(cs2)C(=O)NC2c4nc(cs4)C(=O)NC(COC(=O)c4c5c6c(cccc6n4O)COC(=O)C(OC4CC(C)(O)C(N(C)C)C(C)O4)C2OC5)c2nc-3cs2)n1)C(N)=O (stereo not drawn) | Staphylococcus epidermidis | microbial growth | MRSE | clinical isolate |  | MIC90 | 0.0156 µg/mL (≈ 0.0109 µM)
O=C(N/N=C/c1cc[n+](CC2CC2)c2ccccc12)N/N=C/c1cc[n+](CC2CC2)c2ccccc12 | myc22 MYC G4-DNA parallel | FRET melting |  | 1 µM, K1 buffer, DNA 0.2 µM, together with: ds26 10 µM |  | ΔTm | 3.7 ± 0.5 °C
C=CC(=O)Nc1cccc(Cn2ncc3cnc(Nc4cnn(CCOC)c4)nc32)c1 | CLK2 human | binding, KINOMEscan |  | 100 nM | lower = stronger binding | percent of control | 32%

For quick reference, copied from above:
Structure (SMILES) | target or system | assay | system | setting | how to read | endpoint | value
Cc1ncsc1-c1ccc(C(C)NC(=O)C2CC(O)CN2C(=O)C(NC(=O)CCCCCCCCCCN2CCCC(Nc3ncc(Cl)c(Nc4ccccc4S(=O)(=O)C(C)C)n3)C2)C(C)(C)C)cc1 (stereo not drawn) | 22Rv1 | RNA-seq, measured: TWNK mRNA |  | concentration not given | relative to: DMSO | log2 fold change | -1.03
COC1CN([C@H]2CC[C@H]([C@@]3(C)Oc4c(Cl)cc(C(=O)NCc5c(SC)cc(C)[nH]c5=O)c(C)c4O3)CC2)C1 |  | RNA-seq, measured: CNRIP1 mouse homolog | mouse, HT-1376 xenograft, whole blood | dose not given | relative to: vehicle | log2 fold change | 1.47
